Experimental data pooled from the literature.
Each numbered part is a random draw from the data of one study; scales do not carry over between parts.

Study 1
Target: RNA binding protein fox-1 homolog 2, RRM domain, GST-SBP tag (RBFOX2, Homo sapiens, UniProt O43251-10, residues 100-194)
Technique: RNA Bind-n-Seq
Molecule type: RNA
Medium: in vitro
Concentration: 365 nM
Setting: natural RNA segment, single round, ends assumed
Baseline: no-protein control
Reading: higher = stronger binding
Target sequence (chain): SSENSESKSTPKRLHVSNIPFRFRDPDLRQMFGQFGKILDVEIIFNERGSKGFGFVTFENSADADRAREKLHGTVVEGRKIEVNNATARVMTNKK
Sequence	RBNS enrichment (R)
GGGAGUUCUACAGUCCGACGAUCUCAUCGUUGUUGUUGUGCUGACGUCUGGUCAUGUAUUAUUAGUGUGUCUCGUUCUCCACGGUGCUGGAGACCUCAUUACUUUGGAAAACUCACUGUUCCCCAGCACAGCAUGGAAUUCUCGGGUGCCAA	0.969
GGGAGUUCUACAGUCCGACGAUCAAUUCUAAAUAUUUGAUUAAUUUUAAUUCUGAAAGAAAAUUUUGAGGAUUUAAGCUUAGGGGAUUUUAUUUUUAUAAAUACCAGAUUAUUGUUAGACUUAAUAAAUCACUUGGAAUUCUCGGGUGCCAA	0.551
GGGAGUUCUACAGUCCGACGAUCCAGAGCAGACCAGGCUGCCUCAGAGCAUACACCUUAUAAUGCAACCCACUUCAGCUGGCUUUGGGGAAAGGGGCAUCAAAUUCAGCCUGCCCCAAGGUUGUCAGAGUCAAUGGAAUUCUCGGGUGCCAA	0.392
GGGAGUUCUACAGUCCGACGAUCGUAGGAUUCAAAUGUGUGUCAUUUAGAAGUGGAAGCUAUUAGCACCAAUGACAUAAAUACAUACAAGACACACAACUAAAAUGUCAUGUUAUUAACAGUUAUUAGGUUGUUGGAAUUCUCGGGUGCCAA	0.315

Study 2
Target: PABPC1L2, full length, GST fusion (mouse, UniProt A0ABA7IW68)
Technique: RNAcompete
Molecule type: RNA
Medium: in vitro
Concentration: 20 nM
Setting: 7-mer, probes averaged, single round
Baseline: mean of 7-mers
Reading: higher = stronger binding
Residues (chain): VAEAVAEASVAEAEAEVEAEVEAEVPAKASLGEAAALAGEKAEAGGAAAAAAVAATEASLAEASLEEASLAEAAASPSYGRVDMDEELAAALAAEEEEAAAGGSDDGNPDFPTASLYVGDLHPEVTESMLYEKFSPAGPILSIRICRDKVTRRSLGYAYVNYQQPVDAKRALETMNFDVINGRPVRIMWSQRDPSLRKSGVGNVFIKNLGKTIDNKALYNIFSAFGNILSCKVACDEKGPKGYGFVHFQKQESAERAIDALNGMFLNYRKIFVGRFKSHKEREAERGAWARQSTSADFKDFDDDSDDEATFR
Sequence	7-mer Z-score
AGUGUCU	-0.258
UAGGCAA	0.231
GUUCACC	-0.365
AUGAACC	0.0787
AAGCUUC	-0.19

Study 3
Target: Histone acetyltransferase KAT6A, winged helix 1, GST fusion (KAT6A, Homo sapiens, UniProt Q92794, residues 1-85)
Technique: protein binding microarray
Molecule type: double-stranded DNA, one strand shown
Medium: in vitro
Concentration: not given
Setting: 8-mer, flanks averaged, mean of 2 arrays, mostly near background
Baseline: not given
Reading: higher = stronger binding
Residues (chain): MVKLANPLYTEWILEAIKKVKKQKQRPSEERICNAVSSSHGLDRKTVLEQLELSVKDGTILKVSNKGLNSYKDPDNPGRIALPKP
Sequence	E-score
ATAGGGAT	-0.15
TCATATAA	-0.165
GCCCTTGA	-0.0204

Other studies, line by line
Molecule	target	test	test system	conditions	how to read	endpoint	result
PhoQ, residues 284 288 289 292 302 303 SLSLLA	PhoP, residues 12 14 15 18 19 LWHCS (Escherichia coli, UniProt P23836)	Sort-seq, item: YFP reporter	E. coli	PhoQ-PhoP variant library, with: 10 µM Mg2+	baseline: high Mg2+ state, higher = stronger signaling	fold induction	2.89

Excerpt of the above (study 1):
Sequence	RBNS enrichment (R)
GGGAGUUCUACAGUCCGACGAUCCAGAGCAGACCAGGCUGCCUCAGAGCAUACACCUUAUAAUGCAACCCACUUCAGCUGGCUUUGGGGAAAGGGGCAUCAAAUUCAGCCUGCCCCAAGGUUGUCAGAGUCAAUGGAAUUCUCGGGUGCCAA	0.392
GGGAGUUCUACAGUCCGACGAUCUCAUCGUUGUUGUUGUGCUGACGUCUGGUCAUGUAUUAUUAGUGUGUCUCGUUCUCCACGGUGCUGGAGACCUCAUUACUUUGGAAAACUCACUGUUCCCCAGCACAGCAUGGAAUUCUCGGGUGCCAA	0.969
